Results gathered from unrelated publications.
Compare with care: the assays were run in different laboratories. Values joined by “and” are separate records of one study, mostly repeats; a detail may differ. ± gives the spread as reported.

Compound | target | test | system | conditions | how to read | endpoint | result
C=C1CN(S(=O)(=O)c2ccc(C)cc2)CCCN(Cc2ccccc2)CCCN(S(=O)(=O)c2ccc(C)cc2)C1 | AP-2 complex subunit sigma | SILAC mass spectrometry | SUP-T1 | 10 µM, 17 h | reference: DMSO over compound (reverse) | protein level ratio | 0.19
O=C(C1CCc2ccccc2CC1)N1Cc2cccnc2Nc2ccc(N3CCOCC3)cc21 | IDH1 R132H | 2-HG production, RapidFire MS | MOG-G-UVW overexpressing IDH1 R132H |  |  | IC50 | 90.1 nM and 74.4 nM and 43.2 nM and 65.3 nM
NCCOc1cc(NC(=O)c2cc(OCc3cn(Cc4ccc(C(=O)O)cc4)nn3)cc(C(=O)Nc3cc(OCCN)c4ccccc4n3)n2)nc2ccccc12 | K-ras G-quadruplex DNA | FRET melting |  | 1 µM, pH 7.4, added: 60 mM potassium |  | ΔTm | 4.8 ± 0.4 K
Cn1ccc2cc(-n3c(=O)[nH]c4sc5c(c4c3=O)CCCC5)ccc21 | rat L-type calcium channel | radioligand binding |  | 10 µM, dihydropyridine site |  | inhibition | -16%
Fc1ccc(Nc2nc(NC3CCCCC3)c3cc(C(F)(F)F)ccc3n2)cc1F | β2AR/β1AR TM6 chimera | β-arrestin2 recruitment, antagonist, BRET |  | added: isoprenaline 1 µM |  | pIC50 | 6.7
C=CC(=O)Nc1cccc(Cn2ncc3cnc(Nc4cnn(CCOC)c4)nc32)c1 | MEK2 human | binding, KINOMEscan |  | 100 nM | lower = stronger binding | percent of control | 99%
C=CC(=O)N1[C@@H](c2ccc3c(c2)OCO3)c2[nH]c3ccccc3c2C[C@H]1C(=O)N1CCN(C)CC1 | human cyclin E1 N112C-3xFLAG:CDK2 | co-IP with TMT proteomics, refers to: RPS5 |  | concentration not given, P46782 | reference: wild type DMSO | relative co-enrichment | 94%
Cc1cccc(O[C@H]2CCC[C@@H](C(C)CNCc3ccncc3)C2)c1 (relative stereo) | sodium channel site 2 (human) | binding, Cerep safety panel |  | 10 µM |  | inhibition | 84%
O=C(N/N=C/c1cc[n+](CC2CC2)c2ccccc12)c1cc(C(=O)N/N=C/c2cc[n+](CC3CC3)c3ccccc23)ncn1 | telomeric G4 DNA hybrid-2 | FRET melting |  | 1 µM, DNA 0.2 µM, added: duplex DNA competitor 10 µM |  | ΔTm | 9.4 ± 0.2 °C
O=C(CCCCCCc1ccccc1)c1ncc(-c2ccc(CBr)cn2)o1 | serine hydrolases (mouse) | competitive ABPP | mouse brain membrane proteome |  |  | off-target inhibition concentration | 100 µM
C[n+]1cccc2cc(/C=N/NC(=O)c3cncc(C(=O)N/N=C/c4ccc5c(ccc[n+]5C)c4)n3)ccc21 | telomeric G4 DNA hybrid-2 | FRET melting |  | 1 µM, DNA 0.2 µM, added: duplex DNA competitor 10 µM |  | ΔTm | 20.2 ± 0.6 °C
CN1CCCNC(=O)CC2(CCCCC2)CC(=O)NCCCN(C)CCCNc2cccc3c2C(=O)c2cccc(c2C3=O)NCCC1 | c-myc G-quadruplex DNA | DNA thermal stabilisation, CD melting |  | 4.5 µM, pH 7.4, added: 1.5 µM DNA, 5 mM KCl |  | ΔTm | 10.4 ± 0.9 °C
O=C1c2ccc3c4ccc5c6c(ccc(c7ccc(c2c37)C(=O)N1CCN1CCCCC1)c64)C(=O)N(CCN1CCCCC1)C5=O | telomerase | enzyme activity, inhibitor, TRAP | cell-free | pH 7.4 |  | IC50 | 8700 ± 400 nM
C[n+]1ccc(/C=N/NC(=O)c2cccc(C(=O)N/N=C/c3cc[n+](C)c4ccccc34)c2)c2ccccc21 | telomeric G4 DNA hybrid-2 | FRET melting |  | 1 µM, DNA 0.2 µM |  | ΔTm | 13.7 ± 0.8 °C
O=S(=O)(NCc1ccncc1)c1ccc(C2CCCCC2)cc1 | PU.1, mouse | reporter gene, inhibitor, luminescence | BV-2 PU.1 luciferase reporter | dose not given |  | maximal inhibition | 51%
Nc1ncc(-c2cc(-c3cnn(CC(F)(F)F)c3)ncc2F)nc1C(=O)NC1CNCC(F)C1 (centres unmarked) | IKK-alpha | KINOMEscan competition binding |  | 1 µM | reference: DMSO control | remaining binding | 57%
Cc1ccc(S(=O)(=O)N2N=Cc3ccsc3B2O)cc1 | human pancreatic chymotrypsin | enzyme activity, inhibitor |  |  |  | IC50 | > 50000 nM
C[n+]1cc(/C=N/NC(=O)c2cccc(C(=O)N/N=C/c3cc4ccccc4[n+](C)c3)n2)cc2ccccc21 | telomeric G4 DNA hybrid-2 | FRET melting |  | 1 µM, DNA 0.2 µM, added: duplex DNA competitor 10 µM |  | ΔTm | 18 ± 0.9 °C
O=C(Nc1cc(OCCN2CCCC2)c2ccccc2n1)c1cccc(C(=O)Nc2cc(OCCN3CCCC3)c3ccccc3n2)n1 | c-myc G-quadruplex DNA | FRET melting |  | 1 µM, pH 7.4, added: 60 mM potassium |  | ΔTm | 2.9 ± 0.1 K
C[n+]1cccc2cc(/C=N/NC(=O)C(=O)N/N=C/c3ccc4c(ccc[n+]4C)c3)ccc21 | telomeric G4 DNA hybrid-2 | FRET melting |  | 1 µM, DNA 0.2 µM |  | ΔTm | 3.1 ± 0.2 °C
C[C@@H]1CN(Cc2ccc(S(=O)(=O)n3cnc(C4CC4)n3)cc2)[C@@H](C)CN1c1cc(=O)n(C)c2ccc(C#N)nc12 | DGKα human | PA production, inhibitor, PILS-Nir1 biosensor | HEK293A FKBP-DGKα | added: rapamycin |  | IC50 | 3200 nM
c1ccc(-c2n[nH]cc2-c2ccnc3ccccc23)nc1 | orf19.4144 Candida albicans | kinase binding, MIB/MS competition | Candida albicans lysate | 10 µM | reference: DMSO | log2 fold change | -0.31
NCCOc1cc(NC(=O)c2cc(Cl)cc(C(=O)Nc3cc(OCCN)c4ccccc4n3)n2)nc2ccccc12 | c-myc G-quadruplex DNA | FRET melting |  | 1 µM, pH 7.4, added: 60 mM potassium |  | ΔTm | 16 ± 1 K
CC[n+]1cccc2cc(/C=N/NC(=O)c3cccc(C(=O)N/N=C/c4ccc5c(ccc[n+]5CC)c4)c3)ccc21 | telomeric G4 DNA hybrid-2 | FRET melting |  | 1 µM, DNA 0.2 µM, added: duplex DNA competitor 10 µM |  | ΔTm | 6.7 ± 0.9 °C
Fc1ccc(Nc2nc(NC3CCCCC3)c3cc(Br)ccc3n2)cc1F | β2AR/β1AR TM6 chimera | β-arrestin2 recruitment, antagonist, BRET |  | added: isoprenaline 1 µM |  | pIC50 | 6.4
O=C(N/N=C/c1cc[n+](Cc2ccccc2)c2ccccc12)N/N=C/c1cc[n+](Cc2ccccc2)c2ccccc12 | telomeric G4 DNA hybrid-2 | FRET melting |  | 1 µM, DNA 0.2 µM, added: duplex DNA competitor 10 µM |  | ΔTm | 10 ± 0.7 °C
Nc1ncc2c(n1)-c1c([nH]c3ccc(C4=CCOCC4)cc13)CCC2 | FLT3 ITD F691L | scanMAX |  | 1 µM | reference: control | remaining binding | 91%
O=C(N/N=C/c1ccc2c(ccc[n+]2Cc2ccccc2)c1)c1cc(C(=O)N/N=C/c2ccc3c(ccc[n+]3Cc3ccccc3)c2)ncn1 | telomeric G4 DNA hybrid-2 | FRET melting |  | 1 µM, DNA 0.2 µM |  | ΔTm | 10.3 ± 4.7 °C
NCCCn1cc(COc2cc(C(=O)Nc3cc(OCCN)c4ccccc4n3)nc(C(=O)Nc3cc(OCCN)c4ccccc4n3)c2)nn1 | c-myc G-quadruplex DNA | FRET melting |  | 1 µM, pH 7.4, added: 60 mM potassium |  | ΔTm | 5.7 ± 0.4 K

A few entries again:
Compound | target | test | system | conditions | how to read | endpoint | result
O=C(N/N=C/c1cc[n+](Cc2ccccc2)c2ccccc12)N/N=C/c1cc[n+](Cc2ccccc2)c2ccccc12 | telomeric G4 DNA hybrid-2 | FRET melting |  | 1 µM, DNA 0.2 µM, added: duplex DNA competitor 10 µM |  | ΔTm | 10 ± 0.7 °C
NCCCn1cc(COc2cc(C(=O)Nc3cc(OCCN)c4ccccc4n3)nc(C(=O)Nc3cc(OCCN)c4ccccc4n3)c2)nn1 | c-myc G-quadruplex DNA | FRET melting |  | 1 µM, pH 7.4, added: 60 mM potassium |  | ΔTm | 5.7 ± 0.4 K
Cc1cccc(O[C@H]2CCC[C@@H](C(C)CNCc3ccncc3)C2)c1 (relative stereo) | sodium channel site 2 (human) | binding, Cerep safety panel |  | 10 µM |  | inhibition | 84%
